Results from different studies.
Compare with care: the assays were run in different laboratories. ± marks the error that the study gave. Converted amounts (≈) assume the structure as drawn.
ESR2: Estrogen receptor beta (ESR2, Homo sapiens, UniProt Q92731)
Chain of UniProt Q92731 (whole entry, looked up): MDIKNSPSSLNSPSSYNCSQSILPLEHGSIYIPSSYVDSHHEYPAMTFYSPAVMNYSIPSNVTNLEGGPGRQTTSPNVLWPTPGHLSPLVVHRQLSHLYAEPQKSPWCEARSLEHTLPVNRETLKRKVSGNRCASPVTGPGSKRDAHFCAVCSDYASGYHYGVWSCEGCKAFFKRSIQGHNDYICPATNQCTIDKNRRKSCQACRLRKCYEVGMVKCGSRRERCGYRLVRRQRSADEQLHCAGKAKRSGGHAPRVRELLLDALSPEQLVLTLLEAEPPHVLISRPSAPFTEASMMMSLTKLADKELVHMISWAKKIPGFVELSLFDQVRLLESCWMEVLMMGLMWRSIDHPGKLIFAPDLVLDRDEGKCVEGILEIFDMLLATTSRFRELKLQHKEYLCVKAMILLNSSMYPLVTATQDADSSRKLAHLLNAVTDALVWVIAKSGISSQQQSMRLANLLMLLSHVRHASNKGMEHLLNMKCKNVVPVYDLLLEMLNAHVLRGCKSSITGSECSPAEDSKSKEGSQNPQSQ

C=CCN1CC(=O)N2[C@@H](Cc3ccc(O)cc3F)C(=O)N(Cc3cccc(N4CC(N5CCN(CC)CC5)C4)n3)C[C@@H]2N1C(=O)NCc1ccccc1
treatment-related diarrhoea (advanced solid tumour patients; oral, 80 mg twice daily, grade ≥3, dose-escalation): 0%

CC1Cc2ccccc2N1NC(=O)c1ccc(Cl)c(S(N)(=O)=O)c1 (stereo not shown)
inhibition (Nedd8-cullin1 interaction; neddylation, AlphaScreen; 100 µM): -7.6%

CCN(CC)Cc1ccc2cc(COC(=O)Nc3ccc(C(=O)NO)cc3)ccc2c1
stability relative error (rat plasma; 800 ng/mL, 21 days, -80 °C; baseline: nominal concentration): 97.5%

FC(F)(F)c1ccc(CNc2ccc(Cc3c[nH]c4ncc(Cl)cc34)cn2)cn1
treatment-related adverse events (measured: maculo-papular rash; human, advanced solid tumours, all patients; oral, 1000 mg/day, any grade): 9%

Nc1cc(N2CCCCC2)nc(N)[n+]1[O-]
inhibition (Nedd8-cullin1 interaction; neddylation, AlphaScreen; 100 µM): 14.5%

CN1C(=O)[C@@H](NC(=O)c2nnc(Cc3ccccc3)[nH]2)COc2cccnc21
medical device site reaction incidence (phase I single ascending dose; human, male and female; oral, 30 mg, fasted): 50%

Cc1cc(NC2CCN(C(=O)OC3CCN(C(=O)/C=C/CN(C)C)C3)CC2)n2ncc(C(C)C)c2n1 (stereo not shown)
patients with TEAE (CTCAE v4.0, measured: Nausea; patients with advanced solid tumours; oral, dose not given, all schedules, grade 3 or higher): 2%

CC(=O)O[C@H]1C(=O)[C@@]2(C)[C@H]([C@H](OC(=O)c3ccccc3)[C@]3(O)C[C@H](OC(=O)[C@H](O)[C@@H](NC(=O)c4ccccc4)c4ccccc4)C(C)=C1C3(C)C)[C@]1(OC(C)=O)CO[C@@H]1C[C@@H]2O
adverse event incidence (measured: Alopecia; patients with advanced solid tumours; intravenous, dose not given, grade 1 and 2, possibly related to drug): 28%

CC(F)(F)c1nc2nc(CO)cc(Nc3ccc(S(F)(F)(F)(F)F)cc3)n2n1
half-life, metabolite (LC-MS/MS; malaria patients, plasma; oral, 800 mg of parent drug): 134 h

Cc1cc(C(=O)NC(C)(C)COc2cccc3c2C(N)=NS(=O)(=O)N3)cc(C)n1.O=S(=O)(O)O
Cmax ratio (Sprague-Dawley rat, plasma; oral, 10 mg/kg, vehicle 1% methylcellulose; baseline: female over male): 1.14

COc1ncc(-c2nc3c(n2C(C)C)[C@H](c2ccc(Cl)cc2)N(c2cc(Cl)cn(C)c2=O)C3=O)c(OC)n1
median half-life (human patients, plasma; oral, 30 mg, cycle 1 day 1, low-dose): 1150 min

Cc1ccc(Sc2ccccc2N2CCNCC2)c(C)c1
participants with TEAE (measured: hot flush; healthy adult men; oral, 20 mg daily, 12 days): 0%

COc1cccc(OC)c1-c1cc(C(=O)NC2(C(=O)O)C3CC4CC(C3)CC2C4)nn1-c1ccc(C(=O)N(C)CCCN(C)CCCN(C)C(=O)CN2CCN(CC(=O)[O-])CCN(CC(=O)[O-])CCN(CC(=O)[O-])CC2)cc1C(C)C.[177Lu+3] (stereo not shown)
tumour-to-muscle ratio (mouse, HT-29 xenograft; 24 h post injection, biodistribution; baseline: tumour over muscle uptake): 216

COc1cc2[nH]c(C)c(-c3ccccc3CO)c(=O)c2cc1Cl
kinetic solubility (pH 7.4): 12 to 20 µM (≈ 3.96 to 6.6 µg/mL)

N#Cc1ccc2c(c1)[C@H]1CCCN(C(=O)c3ccc4[nH]cnc4c3)[C@H]1C2
pre-dose plasma concentration (human, plasma; 80 mg once daily, day 14): 1640 nmol/L

CCn1cc(C(=O)N2CCOCC2)c(=O)c2cc(NC3Cc4ccccc4C3)cnc21
AUC(0-inf) (human, fasted; oral suspension, 15 mg single dose, arithmetic mean): 510 ng·h/mL

CCN1CCN(Cc2ccc(NC(=O)c3ccc(C)c(NC(=O)c4cncc(-c5cccs5)c4)c3)cc2C(F)(F)F)CC1
extrapolated AUC share (C57BL/6 mice, plasma; intraperitoneal, 10 mg/kg): 7.21%

CNC(=O)c1ccc(-c2cnc3ncc(Cc4ccc5ncccc5c4)n3n2)cc1F
patients with adverse event (measured: Nausea, all grades; gastric cancer patients; oral, 600 mg twice daily, expansion cohort, any causality): 33%

O=c1c(-c2ccc(O[C@@H]3O[C@H](CO)[C@@H](O)[C@H](O)[C@H]3O)cc2)coc2cc(O)cc(O)c12
EC50 (ESR2; array formation, agonist; GFP-ERβ PRL-HeLa; 1 h): 1150 nM

Cc1nc2cccc(OCC(C)(C)C(=O)NC(C)C)c2c(N)c1C(=O)O
mean body weight change (Swiss albino CD-1 mouse; oral, 1000 mg/kg, 36 h): 2.9 ± 0.6 g

COc1cc(-c2coc3cc(O)c(OC)c(O)c3c2=O)cc(O)c1OC
EC50 (ESR2; array formation, agonist; GFP-ERβ PRL-HeLa; 1 h): 2130 nM

N#Cc1ccc2c(c1)[C@H]1CCCN(C(=O)c3ccc4[nH]cnc4c3)[C@H]1C2
mean ACTH level (human; 40 mg, day 15): 8.6 pmol/L

CCCOc1ccc(-c2ccc(C#N)cc2)cc1
median placental accumulation (Sprague-Dawley rat, female, placenta; 1000 ng/mL in perfusate, 50 (unit not given), middle dose, mixture of 21 LCMs): 82.3 ng/g

N#Cc1ccc(-c2cnc3ccc(-c4ccc(C(=O)N5CCOCC5)cc4)cn23)cc1
placebo-corrected heart rate change (healthy volunteers; oral, 10 mg, fasted, time-averaged): -2 bpm

CC(C)N(CCCCOCC(=O)NS(C)(=O)=O)c1cnc(-c2ccccc2)c(-c2ccccc2)n1
k12 rate constant (population PK model; healthy human, plasma; oral): 0.07 h⁻¹
